Measured values of several laboratories.
Every numbered part comes from another study and shows a few of its results, in no order. Changes are numbered by the printed parent chain.

Sample 1
Target: CCND2, cyclin fold, Cln2 fusion (human)
Technique: yeast growth competition, sequencing
Medium: yeast
Setting: weak parent motif
Reference: not given
Direction: higher = stronger binding
Quantity: normalised enrichment score
Starting sequence: CDKN1B docking peptide (human); PSACRNLFGPVDH
S2N: -0.0751
P1N: 0.0932
F8A: 0.137
N6V: 0.415
D12H: 0.188
P10M: -0.156
C4L: 0.357
F8S: 0.352
F8M: 0.00453
L7M: 0.365
R5W: 0.0238
G9K: 0.36
A3F: 0.282
L7R: 0.0797
A3P: -0.0452
G9D: 0.484
R5A: -0.144
P1W: 0.245
C4D: 0.19
R5F: 0.0905
L7D: 0.175
N6H: 0.0367
P1F: 0.378
L7F: 0.212
N6W: 0.0415

Sample 2
Target: Hepatocyte nuclear factor 3-beta, forkhead domain (FOXA2, Homo sapiens, UniProt Q9Y261, residues 142-269)
Technique: protein-binding microarray
Molecule type: double-stranded DNA, one strand shown
Medium: in vitro
Concentration: not given
Setting: k-mer, scored over probes, only values ≥0.25
Direction: higher = stronger binding
Quantity: E-score
Target sequence (chain): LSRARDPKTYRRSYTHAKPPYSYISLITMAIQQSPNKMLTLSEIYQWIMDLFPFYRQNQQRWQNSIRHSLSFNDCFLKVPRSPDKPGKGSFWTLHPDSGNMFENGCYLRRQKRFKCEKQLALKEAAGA
CATATGTA: 0.299
AGATGAAA: 0.261
ATATCTTG: 0.263
TATCCAAA: 0.326
AATAACAA: 0.371
AACCTATA: 0.323
ATACACAT: 0.359
ACAGTACA: 0.297
ACATGTAG: 0.367
TTACCTAA: 0.259
GTAGTATA: 0.259
ATAAAAAT: 0.267
CAAATCAA: 0.34
AGTGTTAT: 0.25
TAACATAA: 0.357
ACGTACAT: 0.255
TAAGTGTA: 0.342
ATAACATA: 0.349
TAATAGAA: 0.282
ATACTTTG: 0.254
ATATCCAA: 0.291
GTATCAAC: 0.306
GAATATAC: 0.284
AACTTGAT: 0.298
AGTTAGTA: 0.251

Sample 3
Target: Histone acetyltransferase KAT6A, both winged helices, GST fusion (KAT6A, Homo sapiens, UniProt Q92794, residues 1-181)
Technique: protein binding microarray
Molecule type: double-stranded DNA, one strand shown
Medium: in vitro
Concentration: not given
Setting: 8-mer, flanks averaged, mean of 2 arrays, mostly near background
Reference: not given
Direction: higher = stronger binding
Quantity: E-score
Construct (chain): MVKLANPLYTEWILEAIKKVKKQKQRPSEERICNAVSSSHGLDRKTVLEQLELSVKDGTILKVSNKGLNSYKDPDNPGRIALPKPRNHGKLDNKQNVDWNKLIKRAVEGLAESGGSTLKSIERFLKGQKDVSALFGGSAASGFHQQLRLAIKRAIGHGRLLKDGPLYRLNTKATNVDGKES
ATGGTGCC: -0.0863
TATTGCCA: -0.154
AGGGTTGG: -0.21
CATCTCCC: 0.0643
CCCCTCCC: -0.0592
AGGTAATC: -0.0992
CCATGGCA: -0.0912
ACCACTGA: -0.092
AATCTACA: -0.0968
CGCTCTGC: 0.123
CGGCCCAA: 0.148
AGGGTACG: -0.0349
GCATGGAC: 0.00755
ATCGCTCG: 0.108
ATCCCACG: -0.119
CGTAACTC: 0.0347
TCCCCTCA: -0.189
TGCACAAA: -0.134
AGGGCTTA: -0.103
ACTGTCAC: -0.0773
AGCGACCA: -0.0364
GATGTAGA: -0.0814
ACGCCCTG: 0.102
ATTTCCAG: -0.129

Sample 4
Target: Sal-like protein 4, full length isoform A (SALL4, Homo sapiens, UniProt Q9UJQ4, residues 1-1053)
UniProt Q9UJQ4, sequence (whole entry, looked up): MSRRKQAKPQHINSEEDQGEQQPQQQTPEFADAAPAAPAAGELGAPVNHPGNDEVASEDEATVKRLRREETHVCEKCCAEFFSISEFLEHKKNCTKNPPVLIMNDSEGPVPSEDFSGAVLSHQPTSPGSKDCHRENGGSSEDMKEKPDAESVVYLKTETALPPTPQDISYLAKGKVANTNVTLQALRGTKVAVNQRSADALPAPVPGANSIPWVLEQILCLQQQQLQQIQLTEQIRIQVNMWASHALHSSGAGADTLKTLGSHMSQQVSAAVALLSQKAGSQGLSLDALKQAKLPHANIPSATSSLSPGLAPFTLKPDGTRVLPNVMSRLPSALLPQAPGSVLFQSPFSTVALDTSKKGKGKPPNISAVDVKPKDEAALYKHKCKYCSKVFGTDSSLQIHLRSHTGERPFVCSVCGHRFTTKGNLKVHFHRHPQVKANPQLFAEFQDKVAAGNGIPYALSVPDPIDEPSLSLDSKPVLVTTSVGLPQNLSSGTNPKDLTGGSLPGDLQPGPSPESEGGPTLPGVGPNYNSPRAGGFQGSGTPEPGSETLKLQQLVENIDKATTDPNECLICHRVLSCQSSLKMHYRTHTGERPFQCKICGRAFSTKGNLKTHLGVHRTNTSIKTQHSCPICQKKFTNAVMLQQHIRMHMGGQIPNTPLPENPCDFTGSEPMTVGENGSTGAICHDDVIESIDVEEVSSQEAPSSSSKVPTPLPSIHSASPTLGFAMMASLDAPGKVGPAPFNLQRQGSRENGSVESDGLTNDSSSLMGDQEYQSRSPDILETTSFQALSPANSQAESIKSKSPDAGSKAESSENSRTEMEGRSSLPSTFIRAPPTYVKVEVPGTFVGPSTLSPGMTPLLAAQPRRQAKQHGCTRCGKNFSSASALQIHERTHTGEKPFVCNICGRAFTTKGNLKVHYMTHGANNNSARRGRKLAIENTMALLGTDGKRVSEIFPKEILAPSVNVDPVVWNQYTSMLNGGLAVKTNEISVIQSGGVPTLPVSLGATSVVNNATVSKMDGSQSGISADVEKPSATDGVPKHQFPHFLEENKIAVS
Technique: universal PBM
Molecule type: double-stranded DNA, one strand shown
Medium: in vitro
Concentration: 600 nM
Setting: 8-mer, flanks averaged, mean of replicates
Direction: higher = stronger binding
Quantity: E-score
GGACGTCA: -0.104
GTCCAAAC: -0.14
AACGGTCG: -0.0373
CCACGGTC: -0.398
GTATACAC: 0.0746
TCCTCCGA: -0.229
CACTATAC: 0.188
CTGTGGCC: -0.38
ACGATCCA: -0.0572
CCAGAAAC: -0.0763
CTGCGTAA: 0.0685
AAATACAG: 0.265
GAAGAACA: 0.0954
AGTAGAGA: 0.123
TAGGAGAA: 0.0853
AATAAAAG: 0.274
TCTGCGAA: -0.0253
CCTGCAGG: -0.339

Sample 5
Target: RING finger protein unkempt homolog, zinc fingers 1-6, GST-SBP tag (UNK, Homo sapiens, UniProt Q9C0B0, residues 30-357)
UniProt Q9C0B0, sequence (30-357, looked up): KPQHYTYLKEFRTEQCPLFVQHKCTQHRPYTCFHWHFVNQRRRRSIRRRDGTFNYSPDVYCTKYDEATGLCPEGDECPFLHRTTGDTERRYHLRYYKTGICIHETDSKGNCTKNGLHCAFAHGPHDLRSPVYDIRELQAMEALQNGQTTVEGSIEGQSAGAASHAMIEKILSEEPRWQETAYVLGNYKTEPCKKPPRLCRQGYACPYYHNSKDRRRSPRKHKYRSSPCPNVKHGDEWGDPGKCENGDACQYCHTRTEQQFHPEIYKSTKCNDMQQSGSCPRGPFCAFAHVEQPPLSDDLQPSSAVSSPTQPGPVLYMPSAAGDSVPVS
Technique: RNA Bind-n-Seq
Molecule type: RNA
Medium: in vitro
Concentration: not given
Setting: RNA with constant flanks, human and mouse sites, ends assumed
Reference: input RNA pool
Direction: higher = stronger binding
Quantity: bound/input enrichment
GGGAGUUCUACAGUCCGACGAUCUUUCCUGUACCAAGCACCCAGCUCUCCUCUUGUUCUGAAAGGGAUUUCACAUCUUCAGCGUAGCUUCAGUACAUCAUCGGAGGAGUCUGCUGUCCCUAACACAGAGGGAGACCUCGCUUUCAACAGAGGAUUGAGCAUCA: 0.141 ratio
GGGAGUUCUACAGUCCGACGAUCUUUCUCAAAUCCCUAAAUUUCUGAUUUCCAUUCAAGUCUUUUAAACUCUUUCCUGCUGAAUAGCAAAGAACUUUUAUUUUCCACUUUCCUAUAUUCCUAAAAAGUGUGAACAAUGCGUUUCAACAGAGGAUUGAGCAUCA: 0.385 ratio
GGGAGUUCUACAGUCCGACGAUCACCAGAGAUGAGACCAACUAUGGCAUACCACAGCGUGCUCUGAGAGGUCACUCCCACUUCGUUAGUGAUGUUGUUAUCUCCUCUGAUGGUCAGUUUGCCCUCUCGGGCUCCUGGGACGGACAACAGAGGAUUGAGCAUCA: 0.349 ratio
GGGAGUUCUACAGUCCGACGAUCGCAAGGCAGAGCCACCAGAAGAGGGCACCUAGUUUCCAUGACAAAUAUGGGAAUGCUAUAUUAGCAGGUGGAGCCAUCUUCUGUGUUUCUACAUGGACAUAUACAGCCACACAAAUUGGACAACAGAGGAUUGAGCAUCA: 0.309 ratio
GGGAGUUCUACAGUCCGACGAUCCAGUAUCUGAUGGAUAAUCCAACGUUCGCAGAGGAUGAAGAGUUACAGAACAUGGAUAAAGAAGAUGCAUUAAUAUGCUUUGAGGAACACAUCCGGGCUUUAGAAAAGGAAGAAGAAGAACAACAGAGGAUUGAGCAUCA: 0.422 ratio
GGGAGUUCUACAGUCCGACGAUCCAGGGUCUUUAUUGUGUGGCUAUUCGUGAUUUCAAACAGGCAGCUGAACUCUUCCUUGACACUGUUUCAACAUUUACAUCCUAUGAACUCAUGGAUUAUAAAACAUUUGUGACUUAUACUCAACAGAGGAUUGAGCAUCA: 0.137 ratio
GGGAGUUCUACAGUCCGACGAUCAGUGGGAAUAUCACUUUUGAUGAGAUUGUCAACAUUGCUCGACAGAUGCGGCACCGAUCCUUAGCCAGAGAACUCUCUGGAACCAUUAAAGAGAUCCUGGGGACUGCCCAGUCAGUGGGCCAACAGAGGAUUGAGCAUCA: 0.241 ratio
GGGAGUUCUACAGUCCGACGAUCAGGUCCAGUGUAUCUAAGGUGCCCUUAUUGCUUCCAAAUGUUUCUGCUUUGGAAUCUCAAAUAGAAAUGGGCAACAUAGUUAAACCCAAAGUACUUACGAAAGAAGCAGAGGAAAAACUUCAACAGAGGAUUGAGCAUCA: 0.201 ratio

For quick reference, copied from above (sample 1):
S2N: -0.0751
P1N: 0.0932
F8A: 0.137
N6V: 0.415
D12H: 0.188
P10M: -0.156
C4L: 0.357
F8S: 0.352
F8M: 0.00453
L7M: 0.365
R5W: 0.0238
